Measurements of several laboratories.
Parts stem from different laboratories: compare values within a part only.

Block 1
Target: Interferon regulatory factor 7, full length, phosphomimetic (IRF7, Homo sapiens, UniProt Q92985, residues 1-503, S471D/S472D/S475D/S476D/S477D/S483D/S484D/S487D)
Sequence of UniProt Q92985 (whole entry, unmodified, looked up): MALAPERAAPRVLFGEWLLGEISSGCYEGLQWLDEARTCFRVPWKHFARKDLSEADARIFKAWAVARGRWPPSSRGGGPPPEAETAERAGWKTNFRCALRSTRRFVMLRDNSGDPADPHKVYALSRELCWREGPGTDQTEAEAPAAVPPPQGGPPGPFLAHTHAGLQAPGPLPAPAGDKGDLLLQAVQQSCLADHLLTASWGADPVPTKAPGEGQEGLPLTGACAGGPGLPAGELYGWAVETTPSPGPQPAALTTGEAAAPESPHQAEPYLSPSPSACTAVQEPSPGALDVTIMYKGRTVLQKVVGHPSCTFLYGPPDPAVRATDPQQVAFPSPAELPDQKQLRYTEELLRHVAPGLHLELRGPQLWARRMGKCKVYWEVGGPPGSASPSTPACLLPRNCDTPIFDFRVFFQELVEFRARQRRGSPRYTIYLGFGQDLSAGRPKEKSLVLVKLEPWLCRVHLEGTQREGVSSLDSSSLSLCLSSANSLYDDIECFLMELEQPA
Technique: protein-binding microarray
Molecule type: double-stranded DNA, one strand shown
Sample: in vitro
Tested at: 2200 nM top
Setting: 60-bp whole probe
With: salmon DNA 0.4 mg/ml
Reference: random background probes
Direction: higher = stronger binding
Measurement: fitted relative affinity
Oligonucleotide = GCCTAGCACGAATCTCCCATTATATTTTAGTGCTAGGTCTTGATTCGCTTGACGCTGCTG; result = 1.32 z-score
Oligonucleotide = GCCTAGCACCTGTTTCTGTGTCACAGAGGGTGCTAGGTCTTGATTCGCTTGACGCTGCTG; result = 2.84 z-score
Oligonucleotide = GCCTAGCACTTCGATTCCAGTTTCGATTAGTGCTAGGTCTTGATTCGCTTGACGCTGCTG; result = 6.96 z-score

Block 2
Target: Centromere-binding protein 1, full length, His-tagged (CBF1, Saccharomyces cerevisiae, UniProt P17106, residues 1-351)
Sequence of UniProt P17106 (whole entry, looked up): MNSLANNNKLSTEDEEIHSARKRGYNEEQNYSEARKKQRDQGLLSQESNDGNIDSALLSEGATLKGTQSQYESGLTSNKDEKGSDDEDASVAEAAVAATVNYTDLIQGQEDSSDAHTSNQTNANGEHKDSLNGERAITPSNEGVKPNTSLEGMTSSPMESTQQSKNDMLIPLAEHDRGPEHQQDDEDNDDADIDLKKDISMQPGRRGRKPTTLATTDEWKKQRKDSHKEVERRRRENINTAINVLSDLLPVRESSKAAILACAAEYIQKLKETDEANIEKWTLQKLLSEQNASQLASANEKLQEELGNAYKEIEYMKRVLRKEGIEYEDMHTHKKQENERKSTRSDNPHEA
Technique: competition protein-binding microarray
Molecule type: double-stranded DNA, one strand shown
Sample: in vitro
Tested at: 2 µM
Setting: whole 60-bp probe, lowest competitor level
With: Pho4 competitor, 0.05 µM
Direction: higher = stronger binding
Measurement: fluorescence intensity
Oligonucleotide = GGGCTCTTTGTTTAGCATGTGCCTCATCTCTTTTTCGTCTTGATTCGCTTGACGCTGCTG; result = 169 a.u.
Oligonucleotide = CGTCCTAGTGATTGCGGAGTGGGTGCCATGAGGAAGGTCTTGATTCGCTTGACGCTGCTG; result = 78.3 a.u.
Oligonucleotide = TCGTCGGTTTATTGTCTCGTGGTGATTTGCGTTAAAGTCTTGATTCGCTTGACGCTGCTG; result = 151 a.u.
Oligonucleotide = CTTTCCCGATCTTGTCAGGTGGGTGTAGCACATTTGGTCTTGATTCGCTTGACGCTGCTG; result = 149 a.u.

Block 3
Target: Histone acetyltransferase KAT6A, winged helix 1, GST fusion (KAT6A, Homo sapiens, UniProt Q92794, residues 1-85)
Technique: protein binding microarray
Molecule type: double-stranded DNA, one strand shown
Sample: in vitro
Tested at: not given
Setting: 8-mer, flanks averaged, mean of 2 arrays, mostly near background
Reference: not given
Direction: higher = stronger binding
Measurement: E-score
Residues (chain): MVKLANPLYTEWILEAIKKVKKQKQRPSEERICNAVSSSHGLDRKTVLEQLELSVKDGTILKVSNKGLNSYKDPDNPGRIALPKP
Oligonucleotide = ACTGACTC; result = -0.0436
Oligonucleotide = AACCATGT; result = -0.0982
Oligonucleotide = AGATACCT; result = -0.0962
Oligonucleotide = AATTTTCC; result = -0.0422
Oligonucleotide = AAGTCCTG; result = -0.272

Mixed results
Substance = PhoQ, residues 284 288 289 292 302 303 NLMGRA; target = PhoP, residues 12 14 15 18 19 SGWQI (Escherichia coli, UniProt P23836); test = Sort-seq, measured: YFP reporter; system = E. coli; conditions = PhoQ-PhoP variant library, with: 10 µM Mg2+; scale = reference: high Mg2+ state, higher = stronger signaling; measurement = fold induction; result = 6.82

Repeated from above (block 3):
Oligonucleotide = ACTGACTC; result = -0.0436
